Assay results pooled from the literature.
Every numbered part comes from another study and shows a few of its results, in no order.

Set 1
Target: RING finger protein unkempt homolog, zinc fingers 1-6, GST-SBP tag (UNK, Homo sapiens, UniProt Q9C0B0, residues 30-357)
Method: RNA Bind-n-Seq
Form: RNA
Medium: in vitro
Concentration: not given
Setting: RNA with constant flanks, human-mouse chimeric sites, ends assumed
Baseline: input RNA pool
Direction: higher = stronger binding
Target sequence (chain): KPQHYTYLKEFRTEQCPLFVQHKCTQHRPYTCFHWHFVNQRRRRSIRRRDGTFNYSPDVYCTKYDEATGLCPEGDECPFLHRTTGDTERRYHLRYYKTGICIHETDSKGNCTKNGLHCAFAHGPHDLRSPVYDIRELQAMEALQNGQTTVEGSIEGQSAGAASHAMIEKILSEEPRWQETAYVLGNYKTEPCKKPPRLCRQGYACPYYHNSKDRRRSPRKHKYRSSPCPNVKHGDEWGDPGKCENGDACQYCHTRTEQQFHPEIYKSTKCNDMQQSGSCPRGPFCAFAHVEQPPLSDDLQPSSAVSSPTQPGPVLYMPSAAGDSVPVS
With `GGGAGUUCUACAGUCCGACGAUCUGUGAACUGUCUCUUGAGAUCUAAAAACAAGAUGACUUUUCCUGGCACAUAUUCCAAAGCAAAGACUUUGUUACCUGCUGCUUCUUGUCUAAUUUACAGGGAUAUUUAAUUUUGUCAGGUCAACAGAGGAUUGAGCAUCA` the bound/input enrichment was 0.136 ratio.
`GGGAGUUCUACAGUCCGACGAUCGCAAAGGAUGAUGAGGCAGCUGCAGUUGCACUUUCCUCUCUCGUUCAUGCUUUGGAUGAGUUAAACAUGGUCGCCAUCGUCCGAUAUGCUUAUGACAAAAGAUCUAAUCCUCAAGUUGGUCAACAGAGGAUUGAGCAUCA` has a bound/input enrichment of 0.129 ratio.
The bound/input enrichment of `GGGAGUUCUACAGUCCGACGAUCUCCCUGUUGCUGAAUAAAUGGCUUGUAAAGAAGUUUUUCCAAGCUGUAACCCAUGCUUCCCUUAGAGUUGCUGCAAAAUGUUCUUCCUGAUAUUGAUUUUAUUUGUUAACUGAAGGUCUCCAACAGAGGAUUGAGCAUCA` is reported as 0.554 ratio.
With `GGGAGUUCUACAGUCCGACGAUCAUGGUUGUGUCUCUUGAGAUCUAAAAACAAGAUGACUUUUCCUGGCACAUAUUUCAAAGCAAAGACUUUGUUGCCUGCUGCUUAUUGUCUAAUUUACAGGGAUAUUUAAUUUUGUCAGGUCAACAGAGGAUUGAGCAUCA` the bound/input enrichment was 0.216 ratio.
For `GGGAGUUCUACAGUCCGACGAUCAGCGUUCAGGAAUUCAUGACCUUUACAAGUCAACUGAUUGUGGAACGCUCGGGGAAAGGCACUAGAGCUUCUGUCAAAGAACAAGAGUAUCUUUGCCAUGUCUACGUCCGGAGCGACAGUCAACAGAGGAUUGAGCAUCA`, the bound/input enrichment was 0.0867 ratio.
`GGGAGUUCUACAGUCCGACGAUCUAAAUUAGCCAGCACCAUUUCUGUUUCUCCCUGGGCUGCGGAAAGCCAGAAGAUUUUAUCUAGUUUGUACAAGGCUGCUGGUGUUCCCUCUUUUUUUCCACGAGGGUGUUUUUGGCUGCACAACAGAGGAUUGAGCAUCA` gave a bound/input enrichment of 1.81 ratio.
`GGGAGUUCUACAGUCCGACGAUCCUGGCCUGGCCCUCCCCAGGGGCCUCCUUUCGUAUAGUCACUGCUUCUGCAUCAGAUACUUUCAGCUGCAACUCCCUACUGGGUGGGGCACCCAUUUGAGGCAGGGUUUGGUGCCCCCCUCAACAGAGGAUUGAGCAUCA` has a bound/input enrichment of 0.325 ratio.
`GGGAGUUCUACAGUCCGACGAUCCUGGCCUGGCCCUCCCCAGGGGCCUCCUUCUCUGCAUUCACUGCUUCUGCAUCAGAUACUUUCAGCUGCAACUCCCUGCAGGGUGGGGCACCCAUUUCAGGCAGAAGGUUUUGGUACCCUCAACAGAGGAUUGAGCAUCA` has a bound/input enrichment of 0.219 ratio.

Set 2
Target: Histone acetyltransferase KAT6A, winged helix 2, GST fusion (KAT6A, Homo sapiens, UniProt Q92794, residues 85-181)
Method: protein binding microarray
Form: double-stranded DNA, one strand shown
Medium: in vitro
Concentration: not given
Setting: 8-mer, flanks averaged, mean of 2 arrays, mostly near background
Baseline: not given
Direction: higher = stronger binding
Construct (chain): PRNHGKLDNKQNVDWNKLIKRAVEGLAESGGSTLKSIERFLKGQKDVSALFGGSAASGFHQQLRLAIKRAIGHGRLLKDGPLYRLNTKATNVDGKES
`CGGCTACC` has an E-score of 0.189.
With `CTGAAACC` the E-score was 0.102.
For `TATGACAA`, the E-score was 0.0826.
The E-score of `CTGGAAGC` is reported as 0.0274.
With `TATCCATA` the E-score was 0.0247.
The E-score of `ATTCGACC` is reported as 0.0676.
The E-score of `CGTAAAAA` is reported as 0.0263.
`AAATGCGC` gave an E-score of 0.18.
With `AAGCAGAG` the E-score was 0.083.
`CGTCTAGC` gave an E-score of 0.115.
`ACCACCGC` gave an E-score of -0.141.
With `AGGCATTG` the E-score was -0.141.
`ACACTGAT` gave an E-score of -0.088.
With `TAATAATA` the E-score was 0.142.
`GAAATGAC` gave an E-score of -0.00234.
The E-score of `TATGTCCA` is reported as -0.109.

Set 3
Target: Sal-like protein 4, full length isoform B (SALL4, Homo sapiens, UniProt Q9UJQ4-2, residues 1-616)
Method: universal PBM
Form: double-stranded DNA, one strand shown
Medium: in vitro
Concentration: not given
Setting: 8-mer, flanks averaged, mean of replicates
Direction: higher = stronger binding
`CTCTGCGA` has an E-score of -0.0712.
For `ACACCGTC`, the E-score was -0.147.
With `ATCGTCGA` the E-score was -0.0927.
`AGCCCCGG` has an E-score of -0.448.
For `GGACCACA`, the E-score was -0.155.
For `AGCACGTG`, the E-score was -0.00563.
`CAAGGGGC` gave an E-score of -0.33.
The E-score of `TACCCGGA` is reported as -0.0284.
The E-score of `CGATGCAA` is reported as -0.123.
The E-score of `TCATTAAA` is reported as 0.236.
With `AGCGAGGG` the E-score was -0.0786.
`GAACTTTA` has an E-score of 0.0859.
For `AACGCTGG`, the E-score was -0.189.
For `AACCGTGA`, the E-score was -0.0254.
The E-score of `GTCAACAC` is reported as 0.0008.
The E-score of `AAATAGAT` is reported as 0.286.

Set 4
Target: Hepatocyte nuclear factor 3-beta, forkhead domain (FOXA2, Homo sapiens, UniProt Q9Y261, residues 142-269)
Method: protein-binding microarray
Form: double-stranded DNA, one strand shown
Medium: in vitro
Concentration: not given
Setting: k-mer, scored over probes, only values ≥0.25
Direction: higher = stronger binding
Residues (chain): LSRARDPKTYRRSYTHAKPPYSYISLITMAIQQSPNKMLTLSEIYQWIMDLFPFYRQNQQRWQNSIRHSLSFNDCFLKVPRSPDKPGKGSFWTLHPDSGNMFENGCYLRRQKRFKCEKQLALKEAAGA
For `AACAACAT`, the E-score was 0.291.
The E-score of `AAATAATT` is reported as 0.31.
With `CAGGTAAA` the E-score was 0.279.
`ATATCGAA` has an E-score of 0.264.
The E-score of `TTAGATAA` is reported as 0.256.
`CAAATAAC` gave an E-score of 0.348.
`AGTTAATA` has an E-score of 0.267.
`AATATACC` has an E-score of 0.32.
`ATTGACCA` has an E-score of 0.258.
`ACATGTAT` gave an E-score of 0.345.
`AACTATAT` has an E-score of 0.346.
`ATGTATTG` gave an E-score of 0.379.
For `AGAAATAT`, the E-score was 0.295.
With `AATATTAG` the E-score was 0.301.
`ACATCACT` has an E-score of 0.276.
`ATGCATCA` has an E-score of 0.335.
